Published values from different studies.
Each line is one published result; not all experiments were run side by side. ± gives the spread as reported. Values after ≈ are worked out from the molar mass of the structure shown.

SMILES	tested on	test	system	conditions	scale	endpoint	value
CN[C@@](C)(C[18F])C(=O)O	MDA-MB-468 tumour model		host not given, bone	15 min, tumour-bearing		tracer uptake	2.2 %ID/g
CC(=O)NNC(=O)c1ccncc1			rabbit caseum	5 µM, 4 h, 37 °C		fraction unbound	> 99.9%
N[C@@]1(c2ccccc2Cl)CCC[C@H](O)C1=O			male CD-1 mice, plasma	intraperitoneal, 5 mg/kg		dose-normalized Cmax	189 ± 23 ng/mL per mg/kg
C[C@H]1CNCCc2ccc(Cl)cc21			Sprague-Dawley rat, male, plasma	subcutaneous, 0.5 mg/kg, 180 min		plasma concentration	3.03 ± 0.18 ng/mL
CN[C@@H](C)Cc1ccccc1		seizure incidence	C57Bl/6J mice, both sexes	intraperitoneal, 2 h, dose as salt		ED50	97.1 mg/kg
Cc1ncc2n1-c1ccc(Cl)cc1C(c1ccccc1F)=NC2			human CYP3A5 expressers, serum	geometric mean, together with: ketoconazole 200 mg		terminal half-life	5.68 h
Cc1ncc2n1-c1ccc(Cl)cc1C(c1ccccc1F)=NC2			healthy male, plasma	oral, 7.5 mg, alone, arithmetic mean, day 1		AUC(0-t)	115 ng·h/mL
COc1nc2ccc(Br)cc2cc1[C@@H](c1ccccc1)[C@@](O)(CCN(C)C)c1cccc2ccccc12			THP-1 caseum surrogate	5 µM, 4 h, 37 °C		fraction unbound	< 0.0001
N=C(N)c1ccc(-c2ccc(-c3ccco3)o2)cc1F	Salmonella enterica	sodium azide mutagenicity	TA1535	10 µM, 48 h, together with: sodium azide 2 µg/plate after pre-exposure		inhibition	10%
CCCCCn1cc(C(=O)c2cccc3ccccc23)c2ccccc21		HPLC-MS/MS	mouse, brain	inhalation, 2.7 mg in 50 mg smoked Buzz, 60 min		brain concentration	83 ± 42.8 ng/g
C[C@@H]1CC[C@@](N)(c2ccccc2Cl)C(=O)[C@@H]1O			male CD-1 mice, plasma	intraperitoneal, 5 mg/kg		dose-normalized Cmax	565 ± 30.2 ng/mL per mg/kg
C=C1C[C@@H]2[C@H](CC[C@]3(C)C(=O)CC[C@@H]23)[C@@]2(C)C=CC(=O)C=C12		LC-MS/MS	postmenopausal breast cancer women, plasma	oral, 25 mg/day, 2 h, AST or ALT over 40		median plasma concentration	11 ng/mL
CN1CC[C@@]23CCCC[C@@H]2[C@@H]1Cc1ccc(O)cc13			Wistar rat, both sexes, plasma	oral, 5 mg/kg DEM, DEM 2 h after pretreatment, together with: TCE 400 mg/kg single pretreatment		MRT(0-inf)	5.05 ± 2.34 h
CS(=O)(=O)N1CCC(Oc2ccc(CC(=O)N3CCC(N4C(=O)CCc5ccccc54)CC3)c(OC/C=C\[125I])c2)CC1		radio-HPLC, item: free iodide-125	10% ethanol in saline	45 days, storage stability		decomposition	15 to 20%
CCCCCCCCCCC(=O)O[C@H]1CC[C@H]2[C@@H]3CCC4=CC(=O)CC[C@]4(C)[C@H]3CC[C@]12C			human blood, NaF/EDTA tubes	300 ng/mL, 60 min	relative to: no compound added	testosterone change	20.9%
CCCC(C(=O)c1ccc(O)c(O)c1)N1CCCC1 (stereo not shown)			human plasma	0.75 µg/L, 24 h, Low QC, room temperature	relative to: freshly fortified plasma	stability	1 % difference
CCC[C@H](C(=O)c1ccccc1)N1CCCC1		heart rate, telemetry	male Sprague-Dawley rat	subcutaneous, 3 h session mean		ED50	9.85 mg/kg
CO[C@H]1/C=C/O[C@@]2(C)Oc3c(C)c(O)c4c(O)c(c(/C=N/N5CCN(C6CCCC6)CC5)c(O)c4c3C2=O)NC(=O)/C(C)=C\C=C\[C@H](C)[C@H](O)[C@@H](C)[C@@H](O)[C@@H](C)[C@H](OC(C)=O)[C@@H]1C			THP-1 caseum surrogate	5 µM, 4 h, 37 °C		fraction unbound	0.011 ± 0.001
N[C@@]1(c2ccccc2Cl)CCC[C@@H](O)C1=O			Wistar rat, plasma	intraperitoneal, 40 mg/kg, up to 48 h, single dose		plasma concentration	≥ 5 ng/mL
C[C@]12CC[C@H]3[C@@H](CCC4=CC(=O)CC[C@@]43C)[C@@H]1CC[C@@H]2O			EpiDerm-200-X reconstructed epidermis	6 nmol/cm^2, 6 h, 32 °C, 100% ethanol vehicle		cumulative permeation	2.99 ± 0.31 nmol/cm²

SMILES	tested on	test	system	conditions	scale	endpoint	value
N=C(N)NCCC[C@@H]1NC(=O)[C@H](CCCCNC(=O)[C@H](CC(=O)O)NC(=O)[C@H](CC(=O)O)NC(=O)[C@H](CC(=O)O)NC(=O)CC[C@H](NC(=O)CCOCCOCCOCCOCCNC(=O)c2ccc(NN)nc2)C(=O)N[C@@H](CC(=O)O)C(=O)N[C@@H](CC(=O)O)C(=O)N[C@@H](CC(=O)O)C(=O)NCCCC[C@@H]2NC(=O)[C@@H](Cc3ccccc3)NC(=O)[C@H](CC(=O)O)NC(=O)CNC(=O)[C@H](CCCNC(=N)N)NC2=O)NC(=O)[C@@H](Cc2ccccc2)NC(=O)[C@H](CC(=O)O)NC(=O)CNC1=O [technetium-99m labelled]			U-87 MG xenograft athymic nude mice, lungs	intravenous, 60 min, together with: RGD2 14 mg/kg co-injected		tissue uptake	0.29 ± 0.01 %ID/g
NNC(=O)c1ccncc1			THP-1 caseum surrogate	5 µM, 4 h, 37 °C		fraction unbound	> 0.999
CC1N=C(c2ccccc2F)c2cc(N(C)C)ccc2NC1=O (stereo not shown)		shake flask	PBS	24 h, pH 7.4		solubility	186 µM (≈ 58.1 µg/mL)
N[C@]1(c2ccccc2Cl)CC[C@@H](O)CC1=O			female CD-1 mice, plasma	intraperitoneal, 5 mg/kg		dose-normalized Cmax	405 ± 10.6 ng/mL per mg/kg
CCCC(C(=O)c1ccc(O)c(OC)c1)N1CCCC1 (stereo not shown)			human plasma	0.75 µg/L, 24 h, Low QC, room temperature	relative to: freshly fortified plasma	stability	14.2 % difference
N[C@]1(c2ccccc2Cl)C[C@H](O)CCC1=O			female CD-1 mice, plasma	intraperitoneal, 5 mg/kg		dose-normalized Cmax	133 ± 8.9 ng/mL per mg/kg
N=C(N)NCCC[C@@H]1NC(=O)[C@H](CCCCNC(=O)CNC(=O)CNC(=O)CNC(=O)CC[C@H](NC(=O)CCOCCOCCOCCOCCNC(=O)c2ccc(NN)nc2)C(=O)NCC(=O)NCC(=O)NCC(=O)NCCCC[C@@H]2NC(=O)[C@@H](Cc3ccccc3)NC(=O)[C@H](CC(=O)O)NC(=O)CNC(=O)[C@H](CCCNC(=N)N)NC2=O)NC(=O)[C@@H](Cc2ccccc2)NC(=O)[C@H](CC(=O)O)NC(=O)CNC1=O [technetium-99m labelled]		γ-counting	female athymic nude mice, U-87 MG xenograft, heart	intravenous, 1 h		tissue uptake	1.61 ± 0.39 %ID/g
Cc1ncc2n1-c1ccc(Cl)cc1C(c1ccccc1F)=NC2			human liver microsomes	1.0 µM, without NADPH		intrinsic clearance	< 1 µL/min/mg
C[C@@H]1N=C(c2ccccc2F)c2cc(Br)ccc2NC1=O		rapid equilibrium dialysis	rat plasma	5 µM, 4 h, 37 °C		fraction unbound	0.0449
N#Cc1ccc(-c2ccc(-c3cccs3)o2)cc1F	Salmonella enterica		TA1535	10 µM, 48 h, together with: sodium azide after pre-exposure	relative to: sodium azide alone	mutant frequency	26%
COc1cccc(C2(O)CCCCC2CN(C)C)c1 (stereo not shown)		visual analog scale	healthy male non-drug abusers	oral, 50 mg, unit not given	relative to: placebo	take drug again	-2
CCN(C(C)=O)c1cccc(-c2ccnc3c(C#N)cnn23)c1			cynomolgus monkey male, hepatic S9	1 µM, pH 7.4, together with: without NADPH		CLint	12.8 ± 1.34 mL/min/kg
CNC(C)C(=O)c1ccc(C)cc1 (stereo not shown)			C57BL/6 mouse	intraperitoneal, single dose		LD50	143 mg/kg
Cc1ncc(OC[C@@]2(c3cccc(F)c3)C[C@H]2C(=O)Nc2ccc(F)cn2)c(C)n1			healthy human	10 mg, together with: fluconazole		adverse events leading to discontinuation	0%
CSCC[C@@H]1NC(=O)[C@H](CC(=O)O)NC(=O)CNC(=O)[C@H](CCCNC(=N)N)NC(=O)[C@H](C)NC(=O)[C@H](CCC(=O)O)NC(=O)[C@H](CCCNC(=N)N)NC(=O)[C@@H]2CSSC[C@@H]3NC(=O)[C@H](CO)NC(=O)[C@H]([C@@H](C)O)NC(=O)[C@@H]4CCCN4C(=O)[C@H](C)NC(=O)[C@H](Cc4c[nH]c5ccccc45)NC(=O)[C@H](CC(=O)O)NC(=O)CNC(=O)[C@H](CCCNC(=N)N)NC(=O)CNC(=O)[C@H](CCC(N)=O)NC(=O)[C@@H]4CCCN4C(=O)[C@@H](NC(=O)CNC(=O)C(C)F)CSSC[C@H](NC(=O)CNC(=O)[C@H](C)NC(=O)[C@H](CC(C)C)NC(=O)[C@H](CSSC[C@@H](C(=O)NCC(N)=O)NC(=O)[C@H]([C@@H](C)O)NC(=O)[C@H](CCCNC(=N)N)NC(=O)[C@@H]4CCCN4C1=O)NC(=O)[C@H](CC(=O)O)NC(=O)[C@H](CO)NC(=O)[C@H](CC(=O)O)NC(=O)[C@H](CCC(N)=O)NC(=O)[C@H](CO)NC3=O)C(=O)N[C@@H](C(C)C)C(=O)N2 (stereo partly shown) [fluorine-18 labelled]			nude mice U-87 MG xenograft, spleen	intravenous, 2.5 h		tissue uptake	0.48 ± 0.1 %ID/g
Cc1ncc2n1-c1ccc(Cl)cc1C(c1ccccc1F)=NC2			healthy human volunteers, plasma	oral, 7.5 mg single dose, arithmetic mean, alone		AUC	96.2 ng·h/mL
[123I]c1cncc(OC[C@@H]2CCN2)c1		SPECT	human, thalamus	intravenous bolus plus infusion, 5.2 mCi	relative to: plasma	tissue/plasma ratio	62.1
COc1ccc2c(c1)[C@]13CCCC[C@@H]1[C@H](C2)N(C)CC3			Wistar rat, both sexes, plasma	oral, 5 mg/kg, 2 h after pretreatment, together with: single TCE 100 mg/kg		CL/F	333 ± 167 mL/min/kg
CNC(C)Cc1ccc2c(c1)OCO2 (stereo not shown)		seizure incidence	C57Bl/6J mice, both sexes	intraperitoneal, 2 h, dose as salt		ED50	138 mg/kg
CNC(C)Cc1ccc2c(c1)OCO2 (racemic)			human	oral, 1.5 mg/kg, unit not given	relative to: pre-dose baseline	diastolic pressure change	11.5
